Experimental data gathered from unrelated publications.
Lines come from different studies, so protocols differ. Several values in a cell are separate wells, animals, samples, runs or records. ± gives the spread as reported.
Gria2/Glutamate receptor 3: Gria2/Glutamate receptor 3 (Rattus norvegicus, UniProt P19491+P19492)
UniProt P19492, sequence (whole entry, looked up): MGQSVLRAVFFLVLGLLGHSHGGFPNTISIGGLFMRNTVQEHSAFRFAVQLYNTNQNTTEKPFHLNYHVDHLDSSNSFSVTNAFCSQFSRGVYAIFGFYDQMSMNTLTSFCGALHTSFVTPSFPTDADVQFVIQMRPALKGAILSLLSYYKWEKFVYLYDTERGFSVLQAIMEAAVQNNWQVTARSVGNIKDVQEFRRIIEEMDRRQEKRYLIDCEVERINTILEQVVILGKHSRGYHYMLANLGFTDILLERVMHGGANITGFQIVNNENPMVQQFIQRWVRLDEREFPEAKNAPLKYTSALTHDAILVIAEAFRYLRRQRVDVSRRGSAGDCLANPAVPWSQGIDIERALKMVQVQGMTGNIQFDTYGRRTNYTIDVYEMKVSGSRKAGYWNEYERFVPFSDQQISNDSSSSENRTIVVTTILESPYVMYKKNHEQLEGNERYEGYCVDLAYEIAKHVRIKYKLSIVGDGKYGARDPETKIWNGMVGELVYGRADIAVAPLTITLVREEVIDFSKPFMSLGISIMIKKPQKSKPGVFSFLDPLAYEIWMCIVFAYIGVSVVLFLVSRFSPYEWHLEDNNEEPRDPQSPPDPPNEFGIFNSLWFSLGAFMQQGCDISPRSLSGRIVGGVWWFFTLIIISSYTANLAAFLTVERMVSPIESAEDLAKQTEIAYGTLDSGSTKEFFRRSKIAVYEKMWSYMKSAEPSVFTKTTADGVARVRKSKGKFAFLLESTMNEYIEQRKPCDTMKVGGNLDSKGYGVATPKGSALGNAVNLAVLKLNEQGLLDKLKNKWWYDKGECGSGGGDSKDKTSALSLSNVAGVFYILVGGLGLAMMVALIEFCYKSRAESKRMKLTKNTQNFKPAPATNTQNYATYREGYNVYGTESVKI
UniProt P19491, sequence (whole entry, looked up): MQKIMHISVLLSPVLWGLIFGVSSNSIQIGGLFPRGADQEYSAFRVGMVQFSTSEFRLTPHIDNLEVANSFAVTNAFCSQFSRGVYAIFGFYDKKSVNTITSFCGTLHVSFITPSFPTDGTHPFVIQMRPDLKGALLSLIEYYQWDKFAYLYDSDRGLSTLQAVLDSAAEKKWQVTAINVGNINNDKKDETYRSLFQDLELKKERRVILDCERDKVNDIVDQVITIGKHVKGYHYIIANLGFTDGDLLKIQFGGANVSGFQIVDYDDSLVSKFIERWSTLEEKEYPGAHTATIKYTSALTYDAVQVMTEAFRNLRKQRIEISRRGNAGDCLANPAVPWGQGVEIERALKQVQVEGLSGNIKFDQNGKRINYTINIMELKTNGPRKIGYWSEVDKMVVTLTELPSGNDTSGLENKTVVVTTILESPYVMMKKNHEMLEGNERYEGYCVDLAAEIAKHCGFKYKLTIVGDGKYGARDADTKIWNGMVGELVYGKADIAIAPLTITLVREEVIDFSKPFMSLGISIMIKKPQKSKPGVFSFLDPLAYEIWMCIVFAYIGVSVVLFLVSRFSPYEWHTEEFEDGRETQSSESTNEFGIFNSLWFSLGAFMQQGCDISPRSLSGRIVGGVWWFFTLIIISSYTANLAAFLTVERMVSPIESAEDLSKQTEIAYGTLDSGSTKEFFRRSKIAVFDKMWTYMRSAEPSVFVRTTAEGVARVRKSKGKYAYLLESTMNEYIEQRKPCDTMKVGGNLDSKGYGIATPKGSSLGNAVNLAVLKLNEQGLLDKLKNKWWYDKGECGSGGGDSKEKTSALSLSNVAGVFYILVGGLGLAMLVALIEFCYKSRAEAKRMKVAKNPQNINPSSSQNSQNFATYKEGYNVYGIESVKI
IDO1: Indoleamine 2,3-dioxygenase 1 (IDO1, Homo sapiens, UniProt P14902)
UniProt P14902, sequence (whole entry, looked up): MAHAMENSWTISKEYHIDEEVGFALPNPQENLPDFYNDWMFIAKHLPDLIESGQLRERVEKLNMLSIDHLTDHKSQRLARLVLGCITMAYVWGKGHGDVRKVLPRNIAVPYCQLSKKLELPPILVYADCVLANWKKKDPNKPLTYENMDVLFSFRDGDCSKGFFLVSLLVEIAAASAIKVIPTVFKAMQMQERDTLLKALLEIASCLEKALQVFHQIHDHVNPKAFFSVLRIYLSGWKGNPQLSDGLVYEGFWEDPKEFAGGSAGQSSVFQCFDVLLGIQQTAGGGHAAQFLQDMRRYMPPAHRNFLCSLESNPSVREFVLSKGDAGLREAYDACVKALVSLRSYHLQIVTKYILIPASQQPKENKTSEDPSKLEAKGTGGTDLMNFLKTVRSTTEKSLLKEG
ROS1: Proto-oncogene tyrosine-protein kinase ROS (ROS1, Homo sapiens, UniProt P08922)
UniProt P10809, sequence (whole entry, looked up): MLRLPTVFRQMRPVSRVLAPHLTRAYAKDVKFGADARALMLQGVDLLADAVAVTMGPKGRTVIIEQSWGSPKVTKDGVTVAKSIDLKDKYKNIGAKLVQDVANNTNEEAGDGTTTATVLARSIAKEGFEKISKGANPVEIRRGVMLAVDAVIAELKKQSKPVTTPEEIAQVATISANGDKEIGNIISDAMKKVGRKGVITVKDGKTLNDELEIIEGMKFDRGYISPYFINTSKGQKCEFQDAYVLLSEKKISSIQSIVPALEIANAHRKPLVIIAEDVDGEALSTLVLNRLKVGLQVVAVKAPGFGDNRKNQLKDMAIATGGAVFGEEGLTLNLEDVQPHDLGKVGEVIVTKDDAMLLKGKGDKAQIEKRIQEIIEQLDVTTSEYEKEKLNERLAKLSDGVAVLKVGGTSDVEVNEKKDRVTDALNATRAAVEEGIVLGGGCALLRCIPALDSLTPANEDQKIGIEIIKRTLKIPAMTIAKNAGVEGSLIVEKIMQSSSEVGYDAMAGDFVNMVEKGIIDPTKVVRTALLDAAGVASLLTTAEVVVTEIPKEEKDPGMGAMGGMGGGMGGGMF
UniProt P08922, sequence (whole entry, looked up): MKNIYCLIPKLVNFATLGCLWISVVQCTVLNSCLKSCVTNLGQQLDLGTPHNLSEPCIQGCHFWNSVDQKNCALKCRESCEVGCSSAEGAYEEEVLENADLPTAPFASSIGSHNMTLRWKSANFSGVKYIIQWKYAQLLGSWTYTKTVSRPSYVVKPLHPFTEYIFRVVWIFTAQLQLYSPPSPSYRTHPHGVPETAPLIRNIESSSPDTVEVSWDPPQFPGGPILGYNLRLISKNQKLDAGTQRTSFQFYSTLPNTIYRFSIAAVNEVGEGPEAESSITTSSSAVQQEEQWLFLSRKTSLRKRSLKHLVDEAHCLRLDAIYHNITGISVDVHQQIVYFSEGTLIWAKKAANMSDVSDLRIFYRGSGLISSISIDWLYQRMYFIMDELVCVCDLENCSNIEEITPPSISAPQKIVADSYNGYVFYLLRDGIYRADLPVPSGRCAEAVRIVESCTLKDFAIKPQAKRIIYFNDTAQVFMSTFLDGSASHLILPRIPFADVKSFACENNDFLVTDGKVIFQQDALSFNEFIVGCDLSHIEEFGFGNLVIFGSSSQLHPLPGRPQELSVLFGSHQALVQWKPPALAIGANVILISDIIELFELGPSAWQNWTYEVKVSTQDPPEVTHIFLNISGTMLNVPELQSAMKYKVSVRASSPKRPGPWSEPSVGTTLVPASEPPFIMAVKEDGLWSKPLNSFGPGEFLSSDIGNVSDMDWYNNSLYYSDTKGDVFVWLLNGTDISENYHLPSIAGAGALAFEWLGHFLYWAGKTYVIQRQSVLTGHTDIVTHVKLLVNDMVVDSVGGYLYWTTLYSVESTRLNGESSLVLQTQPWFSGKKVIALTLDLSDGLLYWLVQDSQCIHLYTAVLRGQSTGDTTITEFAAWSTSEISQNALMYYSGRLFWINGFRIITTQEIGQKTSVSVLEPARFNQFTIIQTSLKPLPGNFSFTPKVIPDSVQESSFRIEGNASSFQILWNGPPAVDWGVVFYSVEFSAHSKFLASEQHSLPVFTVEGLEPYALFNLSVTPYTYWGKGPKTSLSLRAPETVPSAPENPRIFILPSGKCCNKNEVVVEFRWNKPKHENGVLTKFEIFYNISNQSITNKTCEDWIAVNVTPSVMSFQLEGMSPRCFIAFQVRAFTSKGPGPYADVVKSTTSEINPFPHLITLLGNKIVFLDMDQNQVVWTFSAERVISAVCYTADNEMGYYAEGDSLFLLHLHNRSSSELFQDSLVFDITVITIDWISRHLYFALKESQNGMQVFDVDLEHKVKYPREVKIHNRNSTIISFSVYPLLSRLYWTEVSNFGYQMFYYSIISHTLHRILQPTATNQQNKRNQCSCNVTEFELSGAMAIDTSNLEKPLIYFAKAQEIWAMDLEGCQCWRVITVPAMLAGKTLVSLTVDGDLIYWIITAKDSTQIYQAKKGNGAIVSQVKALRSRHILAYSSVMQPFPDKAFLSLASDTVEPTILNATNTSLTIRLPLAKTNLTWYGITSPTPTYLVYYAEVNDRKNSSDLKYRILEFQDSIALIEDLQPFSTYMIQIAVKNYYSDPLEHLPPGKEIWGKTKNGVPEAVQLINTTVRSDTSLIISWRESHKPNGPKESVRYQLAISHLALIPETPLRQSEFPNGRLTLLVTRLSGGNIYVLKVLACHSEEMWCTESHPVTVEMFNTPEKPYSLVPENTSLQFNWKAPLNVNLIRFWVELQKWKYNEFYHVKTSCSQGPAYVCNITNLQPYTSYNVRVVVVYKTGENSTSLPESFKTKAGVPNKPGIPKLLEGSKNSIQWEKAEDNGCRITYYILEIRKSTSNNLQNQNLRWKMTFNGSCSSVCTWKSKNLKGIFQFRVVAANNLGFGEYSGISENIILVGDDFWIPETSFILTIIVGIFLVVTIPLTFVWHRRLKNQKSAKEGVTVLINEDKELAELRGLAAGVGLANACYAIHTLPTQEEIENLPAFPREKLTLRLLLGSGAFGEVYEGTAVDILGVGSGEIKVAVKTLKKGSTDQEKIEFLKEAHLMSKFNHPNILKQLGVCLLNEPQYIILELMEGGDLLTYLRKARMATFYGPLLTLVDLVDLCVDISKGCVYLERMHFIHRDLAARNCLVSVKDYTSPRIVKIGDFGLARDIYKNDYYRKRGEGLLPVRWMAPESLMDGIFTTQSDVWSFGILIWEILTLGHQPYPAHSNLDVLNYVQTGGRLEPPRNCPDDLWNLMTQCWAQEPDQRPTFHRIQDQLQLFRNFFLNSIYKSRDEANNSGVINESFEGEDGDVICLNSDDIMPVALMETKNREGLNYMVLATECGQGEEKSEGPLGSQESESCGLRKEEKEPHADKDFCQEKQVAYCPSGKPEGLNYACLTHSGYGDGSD

C[C@H]1CN(c2cc(=O)n(C)c3ccc(C#N)nc23)[C@@H](C)CN1Cc1ccc(S(=O)(=O)n2cnc(C3CC3)n2)cc1  IC50 (DGKZ (Homo sapiens, UniProt Q13574); inhibitor, ADP-Glo; added: DAG micelles): 4.2 µM
N[C@@H](COC(c1cccc(F)c1)c1ccccc1OCc1ccccc1)C(=O)O (stereo partly shown)  IC50 (glycine transporter 2 (Xenopus tropicalis, UniProt A0A7D9NK84); glycine uptake, inhibitor; HEK293F; added: 10 nM [3H]glycine): ~0.0521 µM and 0.0521 µM
Cc1cc(-c2ccc(S(=O)(=O)C3CC(C(=O)NC4(C#N)CC4)N(C(=O)C4(C(F)(F)F)CC4)C3)c(C(F)(F)F)c2)ccn1 (stereo not shown)  IC50 (Cathepsin S (CTSS, Homo sapiens, UniProt P25774); enzyme activity, inhibitor, fluorescence): 0.00218 µM
C#CCCn1nc(C)c2c(Cl)c(C(=O)NCC3CC(Br)=NO3)cnc21 (stereo not shown)  IC50 (60 kDa heat shock protein, mitochondrial (Homo sapiens, UniProt P10809); ATPase activity, inhibitor): > 250 µM
O=C1CCC(N2C(=O)c3ccc(N4CC(C(=O)N5CC(CN6CCC(CNC(=O)c7cccc(-c8noc(C(F)(F)F)n8)c7)(c7nc(-c8ccccc8)cs7)CC6)C5)C4)cc3C2=O)C(=O)N1 (stereo not shown)  IC50 (HDAC7 (Homo sapiens, UniProt Q8WUI4); enzyme activity, inhibitor): 0.29 µM
Cc1cc(NC2CCN(C)CC2)ccc1-c1cc2c(N3CCC[C@H](C(=O)NCc4ccc(OC(F)(F)F)cc4)C3)ncnc2[nH]1  IC50 (MAPK3 (Homo sapiens, UniProt P27361); enzyme activity, inhibitor, mobility shift): > 8 µM
O=C(CCc1ccccc1)N1C(=O)C2(NC(c3ccc(F)cc3)C3(C(=O)Nc4ccccc43)N2Cc2ccc(F)cc2)c2ccccc21 (stereo not shown)  IC50 (PIK3CA (Homo sapiens, UniProt P42336); enzyme activity, inhibitor, ADP detection): 0.199 µM
FC(F)(F)c1cccc(CNc2nc(NC3CCN(Cc4ccccc4)CC3)c3nc[nH]c3n2)c1  IC50 (IPMK (Homo sapiens, UniProt Q8NFU5); enzyme activity, inhibitor): 4 µM
CCOc1cc(CN2CCC3(CC2)CN(c2ccc(C(=O)O)cc2)C(=O)N3)c(C2CC2)cc1C  IC50 (SSTR5 (Homo sapiens, UniProt P35346, Q99A); cAMP level, antagonist, GloSensor; AD293; Q99A mutant, bandwidth 2.63, added: CST17 EC80 and forskolin): 0.0245 µM
Cc1cc(C)c(S(=O)(=O)N(CC(=O)O)c2ccc(Nc3ccnc(N4CCCC4)n3)cc2)c(C)c1  IC50 (Aurora kinase B (AURKB, Homo sapiens, UniProt Q96GD4); enzyme activity, inhibitor): > 100 µM
N[C@@H](CCC(=O)N[C@@H](CS[Se]Cc1ccc(-c2cccc(C(O)c3ccc(Cl)c(Cl)c3)c2)cc1)C(=O)NCC(=O)O)C(=O)O (stereo partly shown)  IC50 (PTPN5 (Homo sapiens, UniProt P54829); phosphatase activity, inhibitor; added: pNPP, no glutathione): 0.152 µM
Oc1cc(O)c2cc(O[C@@H]3OC[C@H](O)[C@H](O)[C@H]3O)c(-c3ccc(O)c(O)c3)[o+]c2c1  IC50 (PPO3 (Agaricus bisporus, UniProt C7FF04); enzyme activity, inhibitor, absorbance; pH 6.8): 55.5 µM
O=C(O)Cc1cc2c(cc1C(=O)c1ccccc1Cl)OCO2  IC50 (Gria2/Glutamate receptor 3; ion current, patch clamp): 4.44 µM
Cc1ccc(C(=O)Nc2ccnc(S(N)(=O)=O)c2)c(N2CCCC(F)(F)CC2)n1  IC50 (SCN3A (Homo sapiens, UniProt Q9NY46); Nav1.3 sodium current, inhibitor, automated patch clamp): > 33.8 µM
Fc1ccc(Nc2nc(NC3CCCCC3)c3cc(C(F)(F)F)ccc3n2)cc1F  IC50 (ADRB2 (Homo sapiens, UniProt P07550); cAMP production, antagonist, GloSensor; added: isoproterenol 1 µM): > 50 µM
COC(=O)Cc1cc2c(cc1C(=O)c1ccccc1Cl)OCO2  IC50 (Gria2/Glutamate receptor 3; ion current, patch clamp): 5.31 µM
Cc1nn(-c2cccc(N)c2)c(=O)c2cnc(Nc3ccc(N4CCNCC4)cc3)nc12  IC50 (RPS6KB1 (Homo sapiens, UniProt P23443); enzyme activity, inhibitor): > 10 µM
CC1(C)C(=O)N=C2C1=C(O)C(=O)c1ccccc12  IC50 (SETD7 (Homo sapiens, UniProt Q8WTS6); enzyme activity, inhibitor): > 100 µM
Cc1ccc(Nc2cc(NC3CC3)n3ncc(C#N)c3n2)cc1NC(=O)C1CC1  IC50 (CSNK2A1 (Homo sapiens, UniProt P68400); target engagement in cells, BRET): 7.7 µM
Cc1oc(C)c(-c2ccc(N(CC(C)C)C3CCCCC3)c(NC(=O)Nc3cccc(B4OC(C)(C)C(C)(C)O4)c3)c2)c1C(=O)O  IC50 (IDO1; enzyme activity, inhibitor, recombinant enzyme, measured: kynurenine; 20 min, 2% DMSO, added: L-tryptophan): 94 ± 14 µM
CC(C)(C)NC(=O)CC(NC(=O)CCc1ccccc1)C(=O)NCCNC(=O)c1cccc2ccccc12 (stereo not shown)  IC50 (Proteasome component C5/PSMB8 (Homo sapiens, UniProt P20618+P28062); enzyme activity, inhibitor; immunoproteasome β5i): 0.37 µM
CCn1nc(Cl)c2c1-c1cnc(N)c(c1)O[C@H](C)c1cc(F)ccc1-c1nn(C)cc1C2  IC50 (ROS1; enzyme activity, inhibitor, radiometric): 0.0012 µM
O=C(O)Cc1cc2c(cc1C(=O)c1cccc(I)c1)OCO2  IC50 (Gria2/Glutamate receptor 3; ion current, antagonist, patch clamp): 4.68 µM
CCCC1CCCc2c1[nH]c(=O)c(C#N)c2-c1ccc(C)cc1 (stereo not shown)  IC50 (PDE9A (Homo sapiens, UniProt O76083); enzyme activity, inhibitor, radiometric): 0.0093 µM
COc1ccc(CNC(=O)c2cnc3c(c(C)nn3C)c2Cl)cc1  IC50 (60 kDa heat shock protein, mitochondrial, with HSP10 (Homo sapiens, UniProt P10809); HSP60/10-mediated MDH refolding; 30 min, preincubation before ATP, added: denatured malate dehydrogenase): 8.9 µM
CCN(CC)CC(=O)Nc1cccc(-n2cc(-c3ccc4ccc(-c5cn(-c6cccc(NC(=O)CN(CC)CC)c6)nn5)cc4c3)nn2)c1  IC50 (MAPKAPK2 (Homo sapiens, UniProt P49137); enzyme activity, inhibitor): > 10 µM
O=C(O)Cc1cc2c(cc1C(=O)c1ccccc1)OCO2  IC50 (Gria2/Glutamate receptor 3; ion current, antagonist, patch clamp): 5.5 µM
Cc1oc(C)c(-c2ccc(N(CC(C)C)C3CCCCC3)c(NC(=O)Nc3ccc4c(c3)B(O)OC4)c2)c1C(=O)O  IC50 (IDO1; enzyme activity, inhibitor, recombinant enzyme, measured: kynurenine; 20 min, 2% DMSO, added: L-tryptophan): 32 ± 5 µM
O=C(CCNC(=O)CNC(=O)CC(c1ccccc1)(c1ccccc1)c1ccccc1)NC[C@H]1CCCN(C(=O)c2ccc(F)cc2)C1  IC50 (CHRM1 (Homo sapiens, UniProt P11229); ligand displacement, radioligand; cell membranes): > 30 µM
O=C(O)Cc1cc2c(cc1C(=O)c1cccc(Cl)c1)OCO2  IC50 (Gria2/Glutamate receptor 3; ion current, antagonist, patch clamp): 4.27 µM
Nc1ncc(-c2cc(-c3cnn(CC(F)(F)F)c3)ncc2F)nc1C(=O)NC1CNCC(F)C1 (stereo not shown)  IC50 (ROS1; enzyme activity, inhibitor, radiometric): 0.209 µM
COc1cc2c(c(OC)c1OC)-c1c(cc3c(c1OC)OCO3)CC(C)C(C)C2 (stereo not shown)  IC50 (CES1 (Homo sapiens, UniProt P23141); enzyme activity, inhibitor): 2.41 µM
COC(=O)c1ccc(OC)c(OCc2ccccc2)c1-c1c(C(=O)OC)ccc(OC)c1OCc1ccccc1  IC50 (TLR2 (Homo sapiens, UniProt O60603); reporter gene, inhibitor, SEAP reporter; HEK-Blue hTLR2; 24 h, added: Pam3CSK4 100 ng/mL): > 100 µM
COc1cncc(-c2ccc3[nH]c4ncnc(N[C@H]5CC[C@H](N6CCOCC6)CC5)c4c3c2)c1  IC50 (PIM1 (Homo sapiens, UniProt P11309); enzyme activity, inhibitor, radiometric): 0.008 µM

Excerpt of the above:
N[C@@H](COC(c1cccc(F)c1)c1ccccc1OCc1ccccc1)C(=O)O (stereo partly shown)  IC50 (glycine transporter 2 (Xenopus tropicalis, UniProt A0A7D9NK84); glycine uptake, inhibitor; HEK293F; added: 10 nM [3H]glycine): ~0.0521 µM and 0.0521 µM
CC1(C)C(=O)N=C2C1=C(O)C(=O)c1ccccc12  IC50 (SETD7 (Homo sapiens, UniProt Q8WTS6); enzyme activity, inhibitor): > 100 µM
C#CCCn1nc(C)c2c(Cl)c(C(=O)NCC3CC(Br)=NO3)cnc21 (stereo not shown)  IC50 (60 kDa heat shock protein, mitochondrial (Homo sapiens, UniProt P10809); ATPase activity, inhibitor): > 250 µM
O=C(O)Cc1cc2c(cc1C(=O)c1ccccc1Cl)OCO2  IC50 (Gria2/Glutamate receptor 3; ion current, patch clamp): 4.44 µM
CCN(CC)CC(=O)Nc1cccc(-n2cc(-c3ccc4ccc(-c5cn(-c6cccc(NC(=O)CN(CC)CC)c6)nn5)cc4c3)nn2)c1  IC50 (MAPKAPK2 (Homo sapiens, UniProt P49137); enzyme activity, inhibitor): > 10 µM
